Published values gathered from unrelated publications.
Each line is one published result; not all experiments were run side by side. Several values in a cell are separate wells, animals, samples, runs or records. ± marks the error that the study gave.

CC(C)CC(=O)OC[C@H]1O[C@@](C#N)(c2ccc3c(N)ncnn23)[C@H](O)[C@@H]1O — recovery (plasma protein binding; dog plasma; 0.9 µM, time not given): 95.4%
COc1cccc2c1C(=O)c1c(O)c3c(c(O)c1C2=O)C[C@@](O)(/C(CO)=N/NC(=O)CCCCCN1C(=O)C=CC1=O)C[C@@H]3O[C@H]1C[C@H](N)[C@H](O)[C@H](C)O1 — payload release (HPLC; PBS; 200 µM, pH 6.5, 37 °C): > 90%
COc1cc2c(cc1OC)CN(CCc1ccc(NC(=O)c3cccc4c(=O)c5cccc(OC)c5[nH]c34)cc1)CC2 — half-life (CD-1 mouse, male, plasma; intraperitoneal, 0.3 mg/kg): 7.28 h
Fc1ccc([C@@H]2CCNC[C@H]2COc2ccc3c(c2)OCO3)cc1 — List of Complaints score (measured: Anxiety; healthy volunteers; oral, dose not given, given -1 h relative to LSD, with: LSD; direction not given): 0 score
CC(C)[C@@H]1NC(=O)CNC(=O)[C@H](CC(N)=O)NC(=O)[C@H](CCCNC(=N)N)NC(=O)[C@H](Cc2ccc(O)cc2)NC(=O)[C@H](C(C)C)NC(=O)[C@@H](NC(=O)[C@@H](NC(=O)[C@H](CC(N)=O)NC(=O)[C@H](Cc2c[nH]c3ccccc23)NC(=O)[C@H](C)NC(=O)[C@H](Cc2ccccc2)NC(=O)CN)C(C)C)CSSC[C@@H](C(=O)N[C@@H](Cc2cnc[nH]2)C(=O)N[C@@H](CCCNC(=N)N)C(=O)N[C@@H](CCCNC(=N)N)C(=O)N[C@@H](C)C(=O)N[C@@H](CC(N)=O)C(N)=O)NC(=O)[C@H](C(C)C)NC(=O)[C@H](CCCNC(=N)N)NC1=O — remaining peptide (HPLC; mouse mammary gland homogenate; 2560 µM, 12.00 h, 37 °C, 50 mg/mL tissue): 34.6% and 36.3% and 40.9%
COc1cc2c(Oc3ccc4[nH]c(C)cc4c3F)ccnc2cc1OCC1(N)CC1 — grade 3 Leukopenia (paediatric recurrent refractory sarcoma; 8 mg): 0%
CCC[C@@](N)(CO)CCc1ccc(OCCCCCC(C)C)cc1 — AUC(0-inf) (hound dogs, male; oral, 5 mg/kg, capsule, fed state, geometric mean): 5.45 µM·h
C[C@]1(CO)Cc2ncn(-c3ccc(C#N)c(Cl)c3)c2C(=O)O1 — subjects with drug-related dysgeusia (human; 0.7 mg single dose): 0%
O=S(=O)(Nc1ccccc1)c1ccc(NC(=S)Nc2ccccc2)cc1 — relative organ weight (mouse, male, kidney; oral, 80 mg/kg daily, 14 days; relative to: body weight): 1.61%
Clc1ccc(-c2ccccc2)cc1 — total protein (female Sprague-Dawley rats, serum; inhalation, 23 µg/rat, 4 h after exposure): 6 ± 0.5 g/dL
CC(C)[C@H](N)C(=O)NCCCS(=O)(=O)O — plasma concentration (human; oral, 265 mg twice daily, 4 h post-dose, steady state, week 65): 694 ng/mL
Cc1cccc(Cn2nc(C3CC3)c3c(NC(=O)c4cnc5cc(OCCN6CCN(C)CC6)ccn45)cccc32)n1 — adverse events incidence (measured: Anemia; human pancreatic ductal adenocarcinoma; oral, dose not given, all-causality): 33.3%
O=C(Nc1ccccc1)C1CCN(C(=O)Oc2cccnc2)CC1 — subjects with Haematoma adverse event (adverse event reporting; healthy women; oral, 100 mg): 7.7%
O=C1Nc2cc3[nH]nc(-c4ccncc4)c3cc2CN1Cc1ccccc1 — patients with fatigue (CTCAE v4.03; advanced solid tumour patients; intravenous, 0.45 mg/kg, schedules 1/2): 100%
C1=Cc2nc1cc1ccc([n-]1)c(C1CC1)c1nc(cc3ccc([n-]3)c2C2CC2)C=C1.CC(=O)[O-].[Mn+3] — mean plasma concentration (LC-MS/MS; Sprague-Dawley rat, plasma; oral gavage, dose not given, 240 min): 299 ng/mL
CN(C)C1(CNC(=O)c2ccc3c(c2)CCN3C(=O)c2ccccc2)CCOCC1 — unbound plasma concentration (male C57BL/6 mice; intraperitoneal, 50 mg/kg, 30 min): 2650 nM
CC(C)(c1ccccc1)c1cc(-n2nc3ccccc3n2)c(O)c(C(C)(C)c2ccccc2)c1 — mean daily dermal uptake (exposure assessment; human, age 16-21 years; sunscreen): 0.41 ng/kg body weight/day
NCCCC[C@@H]1NC(=O)[C@@H](Cc2c[nH]c3ccccc23)NC(=O)[C@H](c2ccccc2)NC(=O)[C@@H]2C[C@@H](OC(=O)NCCN)CN2C(=O)[C@H](Cc2ccccc2)NC(=O)[C@H](Cc2ccc(OCc3ccccc3)cc2)NC1=O — placebo-corrected QTcF change (healthy volunteers, male; 600 µg twice daily, 0.0 h, post hoc): 6.8 ms
COc1cc(N2CCC(N3CCN(C)CC3)CC2)ccc1Nc1ncnc(Nc2ccccc2S(=O)(=O)C(C)C)n1 — treatment-emergent adverse events (measured: Headache; Japanese patients with solid tumours; oral, dose not given, all grades): 5 number (percent)
O[C@H]1CCCN[C@@H]1CCCn1cnc2c(Cl)c(Cl)ccc21 — Cmax geometric LS mean (healthy CYP2D6 EM and UM, plasma; oral, 150 mg): 217 ng/mL
C=CC(=O)Nc1cc(Nc2nccc(Nc3cc(Cl)c(F)cc3C(C)(C)O)n2)c(OC)cc1N1CC[C@@H](N(C)C)C1 — mouth ulceration TEAE (human; oral, dose not given): 17.6%
CC1(C)[C@H](C(=O)O[C@H](C#N)c2cccc(Oc3ccccc3)c2)[C@@H]1C=C(Br)Br — enzyme contribution to clearance (measured: CYP2C19; human, age 5 years, recombinant human CYP2C19; 0.1 µM): 0.54%
N#C/N=C1\SCCN1Cc1ccc(Cl)nc1 — concentration (soil; 56 days, nominal 0.12): 0 mg/kg dry soil
COc1ccnc(C(=O)N[C@H]2COC(=O)[C@H](Cc3ccccc3)[C@@H](OC(=O)C(C)C)[C@H](C)OC2=O)c1OCOC(=O)C(C)C — KOC (FOCUS PEARL groundwater modelling; soil; geometric mean input): 5780 mL/g
CC(C)C[C@@H](NC(=O)[C@H](Cc1ccccc1)NC(=O)CNC(=O)[C@@H](C)NC(=O)[C@H](Cc1ccc(O)cc1)NC(=O)[C@@H]1CCCN1C(=O)[C@@H]1CCCN1C(=O)c1ccc[n+](C)c1)C(=O)O — half-life (rat striatum homogenate; 100 µM, pH 7.4, 37 °C): 0.2 h
CCN1CCN(Cc2ccc(Nc3ncc(F)c(-c4cc(F)c5nc6n(c5c4)[C@H](C)CCC6)n3)nc2)CC1 — Hyperglycemia incidence, grade ≥3 (advanced solid tumour patients; dose not given, Phase Ia monotherapy): 8.3%
CC(C)(O)c1cc(Nc2cc(Oc3cn(C4CC4)nc3C3CCOCC3)ccn2)ccn1 — treatment-related adverse events (Cough; patients with advanced cancer, grade 4 glioma expansion; oral, 50 mg twice daily, grade ≥3, 2 weeks on/2 weeks off schedule): 0%
COc1cccc(N=Nc2ccc3[nH]cc(CCN(C)C)c3c2)c1 — cis isomer at photostationary state (light irradiation; solution; with: light 385 nm): 81%
[O-][S+]1CCc2nc(N3CCC(c4ncc(Cl)cn4)CC3)nc(NC3(CO)CCC3)c21 (stereo not shown) — adverse event incidence (measured: upper abdominal pain; healthy male humans; 6 mg twice daily): 0%
CO[C@H]1C[C@@H]2CC[C@@H](C)[C@@](O)(O2)C(=O)C(=O)N2CCCC[C@H]2C(=O)O[C@H]([C@H](C)C[C@@H]2CC[C@@H](OC(=O)NCCOCCOCCOCCOCCOCCOCCOCCOCCC(=O)N3CCc4cc(Cn5nc(-c6ccc7oc(N)nc7c6)c6c(N)ncnc65)ccc4C3)[C@H](OC)C2)C[C@@H](O)[C@H](C)/C=C(\C)[C@@H](O)[C@@H](OC)C(=O)[C@H](C)C[C@H](C)/C=C/C=C/C=C/1C — AE leading to discontinuation (patients with advanced solid tumours; intravenous, 6 mg weekly, grade 3 or higher): 8.3%
CCc1ccc(CC/C=C/c2ccc3c(c2)C(=O)CC3)cc1 — large unstained cells (Sprague-Dawley rat, male, blood; oral, 450 mg/kg/day, 14 days): 1.03%
COc1ccc2c(c1)CN(C(=O)CCN1CCC(Cc3ccccc3)CC1)CC[S@@+]2[O-] — QTcF (female beagle dogs, chronic AV block; intravenous, 3 mg/kg, 3 h): 302 ± 12 ms
CC(=O)c1c(C)c2cnc(Nc3ccc(C4CCN(CCS(C)(=O)=O)CC4)cn3)nc2n(C2CCCC2)c1=O — incidence of ALT increased (HR+/HER2- advanced breast cancer patients; oral, dose not given, all grades): 26%
COc1ccc([C@@H]2CC(=O)c3c(O)cc(O)cc3O2)cc1O — urinary excreted amount, total (male Sprague-Dawley rat, lean; oral, 100 mg/kg of neohesperidin, 12 to 24 h, after β-glucuronidase/sulfatase hydrolysis): 4790 ± 1600 ng
CN1CC[C@@H](c2c(O)cc(O)c3c(=O)cc(-c4ccc(C(F)(F)F)cc4Cl)oc23)[C@@H]1CO — patients with adverse event (measured: urinary incontinence; B-cell malignancies; oral, 100 mg, grade 3 to 4, intermittent dosing): 0%
C[C@@H]1OC(=O)NN=C1c1ccc(-c2ccc(F)cc2)c(C(F)(F)F)c1 — patients with adverse event (phase I trial, measured: Fatigue all grades; human patients; 10 mg loading then 0.5 mg daily): 100%
C[C@@H](NC(=O)N1C(=O)[C@H](Cc2ccnc(N)c2)[C@H]1C(=O)O)C1CCCCC1 — urine leukocyte-positive (healthy Chinese adults; continuous intravenous infusion, 2.25 mg/kg/h, 5.0 days): 12.5%
